Assay results collected from several papers.
Compare with care: the assays were run in different laboratories. Numbers after ± are the reported error.
PRMT8: Protein arginine N-methyltransferase 8 (PRMT8, Homo sapiens, UniProt Q9NR22)
Sequence of UniProt Q9NR22 (whole entry, looked up): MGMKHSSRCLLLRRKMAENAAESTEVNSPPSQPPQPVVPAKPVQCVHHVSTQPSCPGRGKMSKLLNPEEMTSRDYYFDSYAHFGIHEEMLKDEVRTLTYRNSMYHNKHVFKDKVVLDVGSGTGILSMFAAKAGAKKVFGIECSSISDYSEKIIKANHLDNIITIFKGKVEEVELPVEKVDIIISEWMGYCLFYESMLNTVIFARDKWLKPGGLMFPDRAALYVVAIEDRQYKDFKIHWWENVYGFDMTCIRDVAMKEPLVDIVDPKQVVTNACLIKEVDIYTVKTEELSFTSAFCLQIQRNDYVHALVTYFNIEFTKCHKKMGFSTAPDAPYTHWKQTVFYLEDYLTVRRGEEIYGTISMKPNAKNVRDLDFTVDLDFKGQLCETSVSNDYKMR
Kcnmb1 with BK alpha subunit: Calcium-activated potassium channel subunit beta-1, with BK alpha subunit (Kcnmb1, Rattus norvegicus, UniProt P97678)
Sequence of UniProt P97678 (whole entry, looked up): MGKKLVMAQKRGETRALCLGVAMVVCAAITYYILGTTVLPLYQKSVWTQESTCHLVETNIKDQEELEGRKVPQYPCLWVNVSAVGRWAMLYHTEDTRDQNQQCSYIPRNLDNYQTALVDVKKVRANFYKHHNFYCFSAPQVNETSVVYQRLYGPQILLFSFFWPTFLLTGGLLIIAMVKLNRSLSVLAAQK
Sequence of UniProt Q923J1 (whole entry, unmodified, looked up): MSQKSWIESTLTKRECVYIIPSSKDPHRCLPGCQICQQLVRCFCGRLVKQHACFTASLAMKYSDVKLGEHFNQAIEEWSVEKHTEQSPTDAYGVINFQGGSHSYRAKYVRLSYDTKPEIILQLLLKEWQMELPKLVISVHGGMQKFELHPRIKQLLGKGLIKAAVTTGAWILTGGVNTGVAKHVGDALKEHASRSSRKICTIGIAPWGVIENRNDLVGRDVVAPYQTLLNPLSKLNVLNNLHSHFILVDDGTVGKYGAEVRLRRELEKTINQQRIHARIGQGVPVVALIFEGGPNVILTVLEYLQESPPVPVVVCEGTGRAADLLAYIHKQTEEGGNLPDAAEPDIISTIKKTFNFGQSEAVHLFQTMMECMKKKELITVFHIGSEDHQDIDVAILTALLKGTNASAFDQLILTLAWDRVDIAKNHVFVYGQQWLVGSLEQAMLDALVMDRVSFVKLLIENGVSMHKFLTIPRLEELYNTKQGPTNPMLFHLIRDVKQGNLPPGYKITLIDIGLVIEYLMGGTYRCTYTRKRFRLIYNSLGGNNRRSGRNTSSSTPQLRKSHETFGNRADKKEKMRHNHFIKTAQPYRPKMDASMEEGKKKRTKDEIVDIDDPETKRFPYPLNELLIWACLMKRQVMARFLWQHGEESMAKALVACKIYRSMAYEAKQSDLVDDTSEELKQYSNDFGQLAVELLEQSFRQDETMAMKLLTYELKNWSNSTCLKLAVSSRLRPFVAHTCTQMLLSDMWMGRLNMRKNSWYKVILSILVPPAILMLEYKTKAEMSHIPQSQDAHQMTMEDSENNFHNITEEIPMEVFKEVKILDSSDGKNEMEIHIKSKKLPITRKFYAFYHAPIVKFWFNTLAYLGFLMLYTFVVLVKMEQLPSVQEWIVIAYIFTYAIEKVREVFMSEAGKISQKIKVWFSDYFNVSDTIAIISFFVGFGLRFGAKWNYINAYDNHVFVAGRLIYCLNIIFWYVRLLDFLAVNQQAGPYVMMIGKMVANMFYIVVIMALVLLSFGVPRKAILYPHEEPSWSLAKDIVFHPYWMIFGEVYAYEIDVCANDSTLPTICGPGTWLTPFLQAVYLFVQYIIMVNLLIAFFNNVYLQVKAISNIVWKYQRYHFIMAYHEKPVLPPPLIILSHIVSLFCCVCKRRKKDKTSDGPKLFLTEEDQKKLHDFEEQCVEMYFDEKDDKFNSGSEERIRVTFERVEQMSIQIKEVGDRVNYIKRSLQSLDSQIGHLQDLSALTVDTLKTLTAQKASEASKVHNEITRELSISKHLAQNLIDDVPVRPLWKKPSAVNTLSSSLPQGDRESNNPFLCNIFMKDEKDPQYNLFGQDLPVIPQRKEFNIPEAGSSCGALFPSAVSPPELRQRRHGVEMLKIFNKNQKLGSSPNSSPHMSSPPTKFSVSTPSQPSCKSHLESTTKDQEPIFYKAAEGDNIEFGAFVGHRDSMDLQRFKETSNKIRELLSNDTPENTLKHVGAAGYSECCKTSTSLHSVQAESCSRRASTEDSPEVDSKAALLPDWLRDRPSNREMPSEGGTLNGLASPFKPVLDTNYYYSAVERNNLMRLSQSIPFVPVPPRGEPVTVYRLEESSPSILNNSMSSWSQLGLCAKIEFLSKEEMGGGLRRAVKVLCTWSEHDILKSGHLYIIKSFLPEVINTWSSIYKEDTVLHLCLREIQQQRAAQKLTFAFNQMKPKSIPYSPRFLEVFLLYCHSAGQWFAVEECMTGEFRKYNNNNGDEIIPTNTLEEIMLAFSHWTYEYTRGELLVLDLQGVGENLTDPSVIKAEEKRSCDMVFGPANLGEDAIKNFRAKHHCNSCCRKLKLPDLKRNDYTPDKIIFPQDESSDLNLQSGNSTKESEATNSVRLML
Sequence of UniProt P43088 (whole entry, looked up): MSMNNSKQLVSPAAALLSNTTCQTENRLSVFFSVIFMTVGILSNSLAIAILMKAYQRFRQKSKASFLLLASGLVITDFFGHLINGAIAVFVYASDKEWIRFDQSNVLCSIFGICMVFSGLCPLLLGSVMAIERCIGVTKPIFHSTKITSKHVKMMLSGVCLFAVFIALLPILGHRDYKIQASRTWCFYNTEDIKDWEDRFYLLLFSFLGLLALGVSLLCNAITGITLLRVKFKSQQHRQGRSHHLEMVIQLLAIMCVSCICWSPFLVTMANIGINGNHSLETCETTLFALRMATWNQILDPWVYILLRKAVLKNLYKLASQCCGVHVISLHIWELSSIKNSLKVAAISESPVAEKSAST
Sequence of UniProt Q96D96 (whole entry, looked up): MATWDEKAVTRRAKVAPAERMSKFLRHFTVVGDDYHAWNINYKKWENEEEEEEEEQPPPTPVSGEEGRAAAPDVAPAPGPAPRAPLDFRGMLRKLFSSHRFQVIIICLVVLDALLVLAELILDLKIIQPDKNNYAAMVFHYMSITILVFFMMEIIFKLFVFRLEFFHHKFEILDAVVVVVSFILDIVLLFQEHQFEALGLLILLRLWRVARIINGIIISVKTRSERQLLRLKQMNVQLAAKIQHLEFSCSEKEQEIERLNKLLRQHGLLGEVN
Sequence of UniProt Q9QXD6 (whole entry, unmodified, looked up): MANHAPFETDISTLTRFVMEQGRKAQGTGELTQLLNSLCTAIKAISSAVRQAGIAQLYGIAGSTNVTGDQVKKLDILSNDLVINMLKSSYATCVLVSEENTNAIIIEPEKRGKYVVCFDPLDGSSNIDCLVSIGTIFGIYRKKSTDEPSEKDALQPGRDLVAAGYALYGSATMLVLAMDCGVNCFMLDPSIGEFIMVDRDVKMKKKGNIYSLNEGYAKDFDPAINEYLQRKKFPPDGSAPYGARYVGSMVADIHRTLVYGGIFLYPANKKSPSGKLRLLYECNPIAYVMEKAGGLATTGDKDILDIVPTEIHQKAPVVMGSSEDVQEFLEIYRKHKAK
Sequence of UniProt Q12791 (whole entry, looked up): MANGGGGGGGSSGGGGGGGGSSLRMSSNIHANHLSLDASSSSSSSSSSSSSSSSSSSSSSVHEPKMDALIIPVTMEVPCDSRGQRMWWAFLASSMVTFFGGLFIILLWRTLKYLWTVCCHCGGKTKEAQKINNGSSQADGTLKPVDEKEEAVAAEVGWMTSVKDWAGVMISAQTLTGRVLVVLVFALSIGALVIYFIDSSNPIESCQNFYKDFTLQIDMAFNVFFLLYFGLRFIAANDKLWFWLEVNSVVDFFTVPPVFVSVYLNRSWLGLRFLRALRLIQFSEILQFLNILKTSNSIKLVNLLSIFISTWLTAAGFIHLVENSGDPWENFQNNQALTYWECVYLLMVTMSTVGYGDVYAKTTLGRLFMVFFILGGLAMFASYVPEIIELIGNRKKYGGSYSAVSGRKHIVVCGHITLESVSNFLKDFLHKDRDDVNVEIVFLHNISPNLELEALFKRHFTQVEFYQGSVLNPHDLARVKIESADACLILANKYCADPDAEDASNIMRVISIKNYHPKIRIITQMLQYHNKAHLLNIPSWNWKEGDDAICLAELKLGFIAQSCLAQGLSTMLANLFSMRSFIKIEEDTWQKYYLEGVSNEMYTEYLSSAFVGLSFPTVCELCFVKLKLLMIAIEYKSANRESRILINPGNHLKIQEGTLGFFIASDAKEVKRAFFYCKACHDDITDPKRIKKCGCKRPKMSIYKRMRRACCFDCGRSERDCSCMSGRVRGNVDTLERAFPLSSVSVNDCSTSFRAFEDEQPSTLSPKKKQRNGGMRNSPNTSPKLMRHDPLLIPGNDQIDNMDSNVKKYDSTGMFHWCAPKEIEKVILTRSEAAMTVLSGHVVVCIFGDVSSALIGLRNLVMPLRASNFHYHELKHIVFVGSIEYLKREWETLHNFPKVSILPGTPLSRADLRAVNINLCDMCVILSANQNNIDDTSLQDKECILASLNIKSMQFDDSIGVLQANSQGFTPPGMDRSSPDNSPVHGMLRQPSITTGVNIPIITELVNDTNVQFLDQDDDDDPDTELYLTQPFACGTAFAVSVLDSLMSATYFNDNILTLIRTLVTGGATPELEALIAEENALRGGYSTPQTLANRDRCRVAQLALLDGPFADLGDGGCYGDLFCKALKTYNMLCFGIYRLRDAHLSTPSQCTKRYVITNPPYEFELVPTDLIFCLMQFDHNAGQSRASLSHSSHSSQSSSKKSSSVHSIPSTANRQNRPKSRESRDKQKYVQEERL

SMILES | target | test | test system | setting | Hill coefficient
CCCCN1/C(=C/C=C(Br)/C=C/C2=[N+](CCCC)c3ccc(Br)cc3C2(C)C)C(C)(C)c2cc(Br)ccc21.[I-] | PRMT8 | inhibitor, scintillation proximity |  | added: biotinylated histone H4 peptide substrate | 0.62
CCCC[C@H](NC(=O)[C@H](C)c1c(C)[nH]c2ccc(O)cc12)c1ncc(-c2cc3ccccc3nc2OC)[nH]1 | Prostaglandin F2-alpha receptor (PTGFR, Homo sapiens, UniProt P43088) |  |  |  | 0.5
c1ccc2c(c1)CCC[C@H]2Nc1nc2ccccc2[nH]1 | Transient receptor potential cation channel subfamily M member 7 (Trpm7, Mus musculus, UniProt Q923J1) | calcium influx, inhibitor, aequorin luminescence | HEK293T expressing wild-type Trpm7 |  | 1.46 ± 0.07
N=C(N)Nc1nc2ccccc2[nH]1 | Voltage-gated hydrogen channel 1 (HVCN1, Homo sapiens, UniProt Q96D96) | proton current, inhibitor, inside-out patch clamp |  |  | 0.88 ± 0.02
C/C(=N\Nc1ccc([N+](=O)[O-])cc1S(=O)(=O)Nc1ccccc1Cl)c1ccc2ccccc2c1O | Kcnmb1 with BK alpha subunit | BK channel current | CHO with alpha and beta1 |  | 0.25 ± 0.13
N#Cc1ccc(COC[C@H]2O[C@@H](n3c(NCc4ccc(Cl)c(Cl)c4)nc4c(N)ncnc43)[C@H](O)[C@@H]2O)cc1 | Transient receptor potential cation channel subfamily M member 7 (Trpm7, Mus musculus, UniProt Q923J1, F924W) | calcium influx, inhibitor, aequorin luminescence | HEK293T expressing Trpm7 |  | 2.72 ± 0.14
CCOC(=O)C1=C(C)NC(C)=C(C(=O)OC)C1c1cccc([N+](=O)[O-])c1 (stereo not drawn) | Voltage-dependent L-type calcium channel subunit alpha-1C (Cacna1c, Rattus norvegicus, UniProt P22002) | dihydropyridine site binding, antagonist, radioligand binding |  |  | 1.1
CCCCN1/C(=C/C=C/c2sc3ccc(Br)cc3[n+]2CCCC)Sc2ccc(Br)cc21.[I-] | PRMT8 | inhibitor, scintillation proximity |  | added: biotinylated histone H4 peptide substrate | 1.12
O=C(Nc1ccccc1)c1nnc(/C(Cl)=C\c2cccc([N+](=O)[O-])c2)s1 | Kcnmb1 with BK alpha subunit | BK channel current | CHO with alpha and beta1 |  | 0.19 ± 0.12
O=P(O)(O)OC[C@H]1O[C@@](CO)(OP(=O)(O)O)[C@@H](O)[C@@H]1O | Fructose-1,6-bisphosphatase 1 (Mus musculus, UniProt Q9QXD6, G27P) |  |  | untagged G27P | 1.45 ± 0.14
CC[C@@H](C)NS(=O)(=O)c1cc([N+](=O)[O-])ccc1Oc1c(C)c(C(=O)NC[C@@H]2CCCO2)nn1-c1cccc(C)c1C | Kcnmb1 with BK alpha subunit | BK channel current | CHO with alpha and beta1 |  | 0.31 ± 0.09
CN(C)C(=O)C(CCN1CCC(O)(c2ccc(Cl)cc2)CC1)(c1ccccc1)c1ccccc1 | Calcium-activated potassium channel subunit alpha-1, with LRRC26 γ1 subunit (KCNMA1, Homo sapiens, UniProt Q12791) | BK channel conductance, inside-out patch clamp |  | BKα/γ1, Vm 40 mV, nominally Ca2+-free | 0.756 ± 0.11

For quick reference, copied from above:
SMILES | target | test | test system | setting | Hill coefficient
C/C(=N\Nc1ccc([N+](=O)[O-])cc1S(=O)(=O)Nc1ccccc1Cl)c1ccc2ccccc2c1O | Kcnmb1 with BK alpha subunit | BK channel current | CHO with alpha and beta1 |  | 0.25 ± 0.13
